Measured values collected from several papers.
Lines come from different studies, so protocols differ. “And” joins repeats or separate records; there may be more than shown. ± gives the spread as reported.

Cc1cc(C(C)(C)c2ccc(O)c(C)c2)ccc1O  early apoptotic cells (HepG2 spheroids, dissociated; annexin V-FITC/PI flow cytometry; 10 µM, 24 h): 16.9 ± 9.49%
CC[C@H](C)[C@H](NC(=O)[C@H](CC(C)C)NC(=O)[C@@H]1CCCN1C(=O)[C@H](CCC(N)=O)NC(=O)[C@H](CCCCN)NC(=O)[C@H](Cc1c[nH]cn1)NC(=O)[C@H](CS)NC(=O)[C@H](CCCNC(=N)N)NC(=O)[C@H](CCCCN)NC(=O)[C@H](CO)NC(=O)[C@H](CC(C)C)NC(=O)[C@H](CO)NC(=O)[C@H](Cc1ccccc1)NC(=O)[C@H](CC(C)C)NC(=O)[C@H](CCCCN)NC(=O)[C@H](Cc1c[nH]cn1)NC(=O)[C@@H](NC(=O)[C@@H](NC(=O)[C@H](CCCCN)NC(=O)[C@H](CCC(N)=O)NC(=O)[C@H](C)NC(=O)[C@H](CCCCN)NC(=O)[C@H](CC(C)C)NC(=O)[C@H](Cc1ccccc1)NC(=O)[C@H](CC(C)C)NC(=O)[C@H](CCC(N)=O)NC(=O)[C@@H](N)CCCCN)[C@@H](C)CC)C(C)C)C(=O)N[C@@H](CO)C(=O)N[C@@H](CC(C)C)C(=O)N1CCC[C@H]1C(=O)N[C@@H](CCCNC(=N)N)C(=O)N[C@@H](CCC(N)=O)C(=O)N[C@@H](CCCNC(=N)N)C(=O)O  HC50 (human red blood cells; hemolysis): 40.2 µmol/L
C#Cc1ccc(OCCc2cccc(F)c2)c(C(N)=O)c1  selectivity ratio (HepG2; 3 (unit not given); baseline: CC50 glucose over CC50 galactose): < 1
CC[C@H](C)[C@H](NC(=O)[C@H](CCC(N)=O)NC(=O)[C@H](CCCCN)NC(=O)[C@H](CCSC)NC(=O)[C@H](CO)NC(=O)[C@H](CCC(=O)O)NC(=O)[C@H](CCC(N)=O)NC(=O)[C@@H]1CCCN1C(=O)[C@H](CS)NC(=O)[C@@H](NC(=O)[C@H](CCCCN)NC(=O)[C@@H](NC(=O)CNC(=O)[C@@H](NC(=O)[C@@H]1CCCN1C(=O)[C@H](Cc1ccccc1)NC(=O)[C@H](Cc1ccccc1)NC(=O)[C@H](C)NC(=O)[C@H](CO)NC(=O)[C@H](CCCNC(=N)N)NC(=O)[C@H](CCCCN)NC(=O)[C@@H](NC(=O)[C@H](CCCNC(=N)N)NC(=O)[C@H](Cc1c[nH]cn1)NC(=O)[C@H](CCCCN)NC(=O)[C@H](C)NC(=O)[C@H](CC(C)C)NC(=O)[C@H](CC(=O)O)NC(=O)[C@H](Cc1ccccc1)NC(=O)[C@@H](NC(=O)[C@H](CCCNC(=N)N)NC(=O)[C@H](CCCNC(=N)N)NC(=O)[C@H](CCSC)NC(=O)[C@@H](NC(=O)[C@H](CO)NC(=O)[C@H](CCSC)NC(=O)[C@H](CCCCN)NC(=O)[C@H](Cc1ccc(O)cc1)NC(=O)[C@H](CCSC)NC(=O)[C@@H](N)CCCCN)[C@@H](C)O)[C@@H](C)CC)[C@@H](C)O)[C@@H](C)O)C(C)C)C(C)C)C(=O)N[C@@H](CC(C)C)C(=O)O  HC50 (human red blood cells; hemolysis): 2260 µmol/L
Oc1ccc(C(c2ccc(O)cc2)(C(F)(F)F)C(F)(F)F)cc1  viable cells (HepG2 spheroids, dissociated; annexin V-FITC/PI flow cytometry; 0.01 µM, 96 h): 42.2 ± 8.54%
CC[C@H](C)[C@H](NC(=O)[C@H](CC(=O)O)NC(=O)[C@@H](NC(=O)[C@H](CC(N)=O)NC(=O)[C@@H]1CCCN1C(=O)[C@@H](NC(=O)[C@@H](N)Cc1ccccc1)[C@@H](C)O)[C@@H](C)O)C(=O)N[C@H](C(=O)N[C@H](C(=O)N[C@@H](CCCNC(=N)N)C(=O)N[C@H](C(=O)N[C@H](C(=O)NCC(=O)NCC(=O)NCC(=O)N[C@@H](CC(C)C)C(=O)N[C@@H](CCCCN)C(=O)N[C@@H](CCCCN)C(=O)N[C@@H](CC(C)C)C(=O)N[C@@H](CC(C)C)C(=O)N[C@@H](CC(C)C)C(=O)N[C@@H](CC(C)C)C(=O)N[C@@H](CC(C)C)C(=O)N[C@@H](CCCCN)C(=O)N[C@@H](CCCCN)C(=O)N[C@@H](CC(C)C)C(=O)NCC(=O)O)[C@@H](C)O)[C@@H](C)O)[C@@H](C)O)[C@@H](C)CC  lowest hemolytic concentration (human red blood cells; 1 h, 37 °C, 10% hemolysis): > 256 µg/mL
CC(=O)c1cc(-c2ccsc2)ccc1OCCc1cccc(F)c1  selectivity ratio (HepG2; 3 (unit not given); baseline: CC50 glucose over CC50 galactose): > 3 and ~3
Nc1nc2nn[nH]c2c(=O)[nH]1  CC50 (African green monkey cells; 5 days): 23.7 µM
Nc1nc2c(ncn2[C@@H]2O[C@@H]3COP(=O)(O)O[C@H]4[C@@H](O)[C@H](n5cnc6c(N)ncnc65)O[C@@H]4COP(=O)(O)O[C@H]3[C@H]2O)c(=O)[nH]1  viability (HFF-1; 1 µg/mL): 90.3%
CC(C)C[C@H](NC(=O)CNC(=O)CNC(=O)CNC(=O)[C@H](CC(N)=O)NC(=O)[C@@H](NC(=O)[C@@H]1CCCN1C(=O)[C@H](C)NC(=O)[C@@H]1CCCN1C(=O)[C@H](C)NC(=O)[C@H](Cc1ccc(O)cc1)NC(=O)[C@@H]1CCCN1C(=O)[C@H](C)NC(=O)[C@H](CC(C)C)NC(=O)[C@H](CO)NC(=O)[C@@H](N)Cc1ccccc1)C(C)C)C(=O)N[C@@H](CCCCN)C(=O)N[C@@H](CCCCN)C(=O)N[C@@H](CC(C)C)C(=O)N[C@@H](CC(C)C)C(=O)N[C@@H](CC(C)C)C(=O)N[C@@H](CC(C)C)C(=O)N[C@@H](CC(C)C)C(=O)N[C@@H](CCCCN)C(=O)N[C@@H](CCCCN)C(=O)N[C@@H](CC(C)C)C(=O)NCC(=O)O  lowest cytotoxic concentration (HEK-293T cells; CCK-8; 4 h, 37 °C, 10% cell death): 256 µg/mL
O=S(=O)(c1ccc(O)cc1)c1ccc(O)cc1  necrotic cells (HepG2 spheroids; propidium iodide staining; concentration not given, 24 h): decreased
Cc1cccc(C)c1N(Cn1cccn1)C(=O)CCl  toxic ratio (MCF7 AREc32; 24 h, nominal concentration; baseline: baseline IC10 over IC10): 0.29
Nc1ncnc2c1ncn2[C@@H]1O[C@@H]2COP(=O)(O)O[C@H]3[C@@H](O)[C@H](n4cnc5c(N)ncnc54)O[C@@H]3COP(=O)(O)O[C@H]2[C@H]1O  viability (HFF-1; 1 µg/mL): 89.7%
CC[C@@H]1C(=O)N(C)c2cnc(Nc3ccc(C(=O)NC4CCN(C)CC4)cc3OC)nc2N1C1CCCC1  CC50 (African green monkey cells; 5 days): 0.603 µM
CN(CCC=C1c2ccccc2CCc2ccccc21)N=O  relative survival (TK6 expressing CYP2C19; 0.062 µM, 4 h, without S9; baseline: vehicle): 69.7%
CCOP(=S)(OCC)Oc1cc(C)nc(C(C)C)n1  IC10 (rat hepatoma cells; cell confluency, IncuCyte imaging; 24 h, nominal concentration): 25.6 µM
CCNCc1nc2c(N)nc3ccccc3c2n1CC(C)(C)O  viability (HFF-1; 0.1 µg/mL, 48 h): 85.5%
O=c1ccc2ccccc2o1  point of departure (HepaRG 3D spheroids; cellular ATP; 168 h, high-content imaging): 131 µM
Oc1ccc(C2(c3ccc(O)cc3)c3ccccc3-c3ccccc32)cc1  viable cells (HepG2 spheroids, dissociated; annexin V-FITC/PI flow cytometry; 0.10 µM, 96 h): 40.3 ± 13.3%
Cn1cncc1[C@@](N)(c1ccc(Cl)cc1)c1ccc2c(c1)c(-c1cccc(Cl)c1)cc(=O)n2C  CC50 (African green monkey cells; 5 days): 13.3 µM
CC(C)C[C@H](NC(=O)CNC(=O)[C@H](CCCCN)NC(=O)[C@H](CC(C)C)NC(=O)[C@H](CC(C)C)NC(=O)[C@H](CC(C)C)NC(=O)[C@H](CCCCN)NC(=O)CNC(=O)[C@H](CC(C)C)NC(=O)[C@H](CC(C)C)NC(=O)[C@@H](N)CCCCN)C(=O)N[C@@H](CC(C)C)C(=O)N[C@@H](CCCCN)C(=O)O  lowest cytotoxic concentration (HEK-293T cells; CCK-8; 4 h, 37 °C, 10% cell death): 256 µg/mL
CC(=O)c1cc(-c2ccoc2)ccc1OCCc1cccc(F)c1  selectivity ratio (HepG2; 3 (unit not given); baseline: CC50 glucose over CC50 galactose): 2
COc1cc2c(c(OC)c1OC)-c1ccc(OC)c(=O)cc1[C@@H](NC(C)=O)CC2  cytostasis (human peripheral blood lymphocytes; in vitro micronucleus test; 0.05 µg/mL, 3 h exposure, -S9, 27 h harvest): 35%
N#Cc1cc(NCc2cccc(CN3C[C@H](O)[C@@H](O)[C@H](O)[C@H]3CO)c2)cc(C2=COCCO2)c1  viability (A549 expressing ACE2; WST-1; 25 µM, 3 days): 100%
CC(=O)N[C@@H](CCCCN)C(=O)N[C@@H](CC(C)C)C(=O)N[C@@H](CC(C)C)C(=O)N[C@@H](CCCCN)C(=O)N[C@@H](CC(C)C)C(=O)N[C@@H](CC(C)C)C(=O)N[C@@H](CCCCN)C(=O)N[C@@H](CCCCN)C(=O)N1CCC[C@H]1C(=O)N[C@@H](CC(C)C)C(=O)N[C@@H](CCCCN)C(=O)N[C@@H](CC(C)C)C(N)=O  MHC10 (human red blood cells; haemolysis; 6 h, 37 °C, 5% haematocrit in PBS): > 160 µM
CN1CCCC(CC2c3ccccc3Sc3ccccc32)C1 (centres unmarked)  CC50 (African green monkey cells; 5 days): 10.1 µM
CC(c1ccccc1)(c1ccc(O)cc1)c1ccc(O)cc1  late apoptotic cells (HepG2 spheroids, dissociated; annexin V-FITC/PI flow cytometry; 1 µM, 24 h): 9.91 ± 2.97%
CC(C)c1ccc(NC(=O)N(C)C)cc1  toxic ratio (rat hepatoma cells; cell confluency; 24 h, nominal concentration; baseline: baseline IC10 over IC10): 1.4
CC(=O)N[C@@H](CCCCN)C(=O)N[C@@H](CCCCN)C(=O)N[C@@H](CC(C)C)C(=O)N[C@@H](CC(C)C)C(=O)N[C@@H](CCCCN)C(=O)N[C@@H](CC(C)C)C(=O)N[C@@H](CC(C)C)C(=O)N[C@@H](CCCCN)C(=O)N[C@@H](C)C(=O)N1CCC[C@H]1C(=O)N[C@@H](CC(C)C)C(=O)N[C@@H](CCCCN)C(=O)N[C@@H](CC(C)C)C(=O)N[C@@H](CC(C)C)C(=O)N[C@@H](CCCCN)C(N)=O  MHC10 (human red blood cells; haemolysis; 6 h, 37 °C, 5% haematocrit in PBS): > 160 µM
Cc1cc(-c2ccc(/N=N/c3ccc4c(S(=O)(=O)O)cc(S(=O)(=O)O)c(N)c4c3O)c(C)c2)ccc1/N=N/c1ccc2c(S(=O)(=O)O)cc(S(=O)(=O)O)c(N)c2c1O  CC50 (African green monkey cells; 5 days): 18 µM
N[C@H](CCC(=O)N[C@H](CCC[C@H](N)C(=O)O)C(=O)O)C(=O)O  viability (HFF-1; 100 µg/mL): 102%
O=C1NCN(c2ccccc2)C12CCN(CCCC(c1ccc(F)cc1)c1ccc(F)cc1)CC2  CC50 (African green monkey cells; 5 days): 7 µM
CC(C)C[C@@H](NC(=O)CNC(=O)[C@@H](CCCCN)NC(=O)[C@@H](CC(C)C)NC(=O)[C@@H](CCCCN)NC(=O)[C@@H](CCCNC(=N)N)NC(=O)[C@@H](CC(C)C)NC(=O)[C@@H](CC(C)C)NC(=O)[C@@H](CCCNC(=N)N)NC(=O)[C@H](N)CCCNC(=N)N)C(=O)N[C@H](CCCCN)C(=O)N[C@H](CCCCN)C(=O)N[C@H](Cc1ccc(O)cc1)C(=O)N[C@H](CC(C)C)C(=O)N[C@H](Cc1ccc(O)cc1)C(=O)N[C@H](Cc1ccccc1)C(=O)N[C@H](CCCCN)C(=O)N[C@H](CC(C)C)C(=O)N[C@H](CCC(N)=O)C(=O)N[C@H](CC(C)C)C(=O)N[C@H](CC(C)C)C(=O)N[C@H](CCCCN)C(=O)N[C@H](CCCCN)C(N)=O  viability (RAW264.7; MTT; 32 µM, 48 h): ~70%
CC(=O)N[C@@H](CCCCN)C(=O)N[C@@H](CC(C)C)C(=O)N[C@@H](CC(C)C)C(=O)N[C@@H](CCCCN)C(=O)N[C@@H](CC(C)C)C(=O)N[C@@H](CC(C)C)C(=O)N[C@@H](CCCCN)C(=O)N[C@@H](CCCCN)C(=O)N1CCC[C@H]1C(=O)N[C@@H](CC(C)C)C(=O)N[C@@H](CCCCN)C(=O)N[C@@H](CC(C)C)C(=O)N[C@@H](CC(C)C)C(=O)N[C@@H](CCCCN)C(N)=O  MHC10 (human red blood cells; haemolysis; 6 h, 37 °C, 5% haematocrit in PBS): > 160 µM
CC1(C)CCC(c2ccc(Cl)cc2)=C(CN2CCN(c3ccc(C(=O)NS(=O)(=O)c4ccc(N[C@H](CCN5CCOCC5)CSc5ccccc5)c(S(=O)(=O)C(F)(F)F)c4)cc3)CC2)C1  CC50 (African green monkey cells; 5 days): 4.73 µM
CN(CCC(Oc1ccc(C(F)(F)F)cc1)c1ccccc1)N=O (centres unmarked)  relative survival (TK6 expressing CYP2C19; 0.062 µM, 4 h, without S9; baseline: vehicle): 13.7%
CC(C)N1CCN(c2ccc(OCC3COC(Cn4cncn4)(c4ccc(Cl)cc4Cl)O3)cc2)CC1 (centres unmarked)  CC50 (African green monkey cells; 5 days): 10 µM
CC(C)Cn1cnc2c(N)nc3ccccc3c21  viability (HFF-1; 100 µg/mL, 48 h): 0.7%

Excerpt of the above:
CC(=O)c1cc(-c2ccoc2)ccc1OCCc1cccc(F)c1  selectivity ratio (HepG2; 3 (unit not given); baseline: CC50 glucose over CC50 galactose): 2
COc1cc2c(c(OC)c1OC)-c1ccc(OC)c(=O)cc1[C@@H](NC(C)=O)CC2  cytostasis (human peripheral blood lymphocytes; in vitro micronucleus test; 0.05 µg/mL, 3 h exposure, -S9, 27 h harvest): 35%
N#Cc1cc(NCc2cccc(CN3C[C@H](O)[C@@H](O)[C@H](O)[C@H]3CO)c2)cc(C2=COCCO2)c1  viability (A549 expressing ACE2; WST-1; 25 µM, 3 days): 100%
